Measured values pooled from the literature.
Compare with care: the assays were run in different laboratories.
Target: Tyrosine-protein kinase Fes/Fps (FES, Homo sapiens, UniProt P07332)

The remaining binding of `CNC(=O)C1CCN(c2cc(C)c(F)cc2NC(=O)c2ccc(-c3cc(O)ccc3C)c(C)c2)CC1` is reported as 100% (binding, competition with immobilised ligand; 1 µM).
For `Cc1cccc(O[C@H]2CCC[C@@H](C(C)CNCc3ccncc3)C2)c1` (relative stereo), the inhibition was -3% (enzyme activity, inhibitor; 10 µM).
`COc1ccc(NC(=O)Nc2ccc3c(c2)C(=O)N(C(C)CO)CC(C)C(CN(C)Cc2ccc4c(c2)OCO4)O3)cc1` (stereo not drawn) has a remaining activity of 96% (kinase activity; 0.03 µM; relative to: control).
`CN1CC[C@@H](COc2cnc(C#N)cc2-c2ccn3nc(NC(=O)C4CC4)cc3c2)C1` has an inhibition of -5% (enzyme activity, inhibitor; 1 µM).
`C=CC(=O)N1CCCC(n2c(=O)c3ncccc3n(Cc3ccc(Oc4ccccc4)cc3)c2=O)C1` (stereo not drawn) gave a remaining binding of 83% (cell-free assay, competition with immobilised ligand; 1 µM).
For `CCN1CCN(Cc2ccc(NC(=O)c3ccc(C)c(NC(=O)c4cncc(-c5cccs5)c4)c3)cc2C(F)(F)F)CC1`, the remaining binding was 22% (binding, competition with immobilised ligand; 1 µM).
The remaining activity of `COc1c(OCCCN2CCOCC2)ccc2c1N=C(NC(=O)c1cnc(N)nc1)N1CCN=C21` is reported as 105% (kinase activity, inhibitor; 1 µM; relative to: untreated control).
`Cc1cnc2nc1Nc1cccc(c1)COC/C=C/COCc1cc(ccc1OCCN1CCOCC1)N2` gave a remaining binding of 97% (binding; 0.1 µM).
For `C=CC(=O)Nc1cccc(-c2cnc3[nH]cc(C(=O)NC(C)(C)C)c3n2)c1`, the inhibition was 8% (enzyme activity, inhibitor; 0.1 µM).
For `CCN1CCN(Cc2ccc(C(=O)Nc3ccc(C)c(NCc4cnc5[nH]ccc5c4OC)c3)cc2C(F)(F)F)CC1`, the remaining binding was 8.2% (binding, competition with immobilised ligand; 1 µM).
For `NC(=O)C[C@H]1CCc2sc3ncnc(O[C@H]4CC[C@H](N5CCOCC5)CC4)c3c21`, the inhibition was 11% (enzyme activity, inhibitor; 10 µM).
With `Nc1ncc2c(n1)-c1c([nH]c3ccc(C4=CCOCC4)cc13)CCC2` the remaining binding was 99% (binding, competition with immobilised ligand; 1 µM).
`COc1c(Cl)cccc1Nc1c(-c2ccncc2C#C[C@@]2(C)CCCN2C(=O)/C=C/CN(C)C)[nH]c2c1C(=O)NCC2` has a remaining binding of 94% (cell-free assay, competition with immobilised ligand; 3 µM).
`CNC1C[S+]2CC[S+]3CC[S+](C1)[Ru-4]321([N]=C=S)[n]2c3ccc(OC)cc3c3c4c(c5cc(F)c[n+]1c5c32)C(=O)NC4=O` (stereo not drawn) gave a remaining binding of 95% (KinomeScan; 0.1 µM; relative to: untreated).
`O=C(Cc1ccc(OCc2ccccc2)cc1)NC1(C(=O)O)CCN(C(=O)c2ccc(-c3cccc(Cl)c3)cc2)CC1`: “activity vs control” 130% (enzyme activity, inhibitor; 10 µM).

For quick reference, copied from above:
For `CCN1CCN(Cc2ccc(C(=O)Nc3ccc(C)c(NCc4cnc5[nH]ccc5c4OC)c3)cc2C(F)(F)F)CC1`, the remaining binding was 8.2% (binding, competition with immobilised ligand; 1 µM).
For `NC(=O)C[C@H]1CCc2sc3ncnc(O[C@H]4CC[C@H](N5CCOCC5)CC4)c3c21`, the inhibition was 11% (enzyme activity, inhibitor; 10 µM).
